Assay results gathered from unrelated publications.
A part holds a random share of what one study measured.

Sample 1
Target: Interferon regulatory factor 3, full length, phosphomimetic (IRF3, Homo sapiens, UniProt Q14653, residues 1-427, S386D/S396D/S398D/S402D/T404D/S405D)
Technique: protein-binding microarray
Form: double-stranded DNA, one strand shown
Sample: in vitro
Concentration: 2540 nM top
Setting: 60-bp whole probe
Together with: salmon DNA 0.4 mg/ml
Relative to: random background probes
Direction: higher = stronger binding
Target sequence (chain): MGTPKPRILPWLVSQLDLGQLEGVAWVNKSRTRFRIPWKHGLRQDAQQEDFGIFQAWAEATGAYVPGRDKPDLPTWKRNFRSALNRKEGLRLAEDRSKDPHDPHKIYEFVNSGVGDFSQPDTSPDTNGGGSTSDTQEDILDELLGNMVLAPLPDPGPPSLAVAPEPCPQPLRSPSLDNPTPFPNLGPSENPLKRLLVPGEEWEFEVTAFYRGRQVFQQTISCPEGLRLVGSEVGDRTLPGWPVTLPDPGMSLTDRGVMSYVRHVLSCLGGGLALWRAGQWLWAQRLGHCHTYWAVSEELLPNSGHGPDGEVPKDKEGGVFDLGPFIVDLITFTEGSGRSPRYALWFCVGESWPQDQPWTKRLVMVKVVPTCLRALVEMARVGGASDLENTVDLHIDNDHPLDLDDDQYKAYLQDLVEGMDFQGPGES
Sequence | fitted relative affinity [z-score]
GCCTAGCACGACGGACTGGGGCCTGGGGACGTGCTAGTCTTGATTCGCTTGACGCTGCTG | -1.21
GCCTAGCACGACGATATCCGTATCGAGACGTGCTAGGTCTTGATTCGCTTGACGCTGCTG | 1.93
GCCTAGCACTCAACCATCATCCTCACACTGTGCTAGGTCTTGATTCGCTTGACGCTGCTG | 0.0317

Sample 2
Target: Histone acetyltransferase KAT6A, both winged helices, GST fusion (KAT6A, Homo sapiens, UniProt Q92794, residues 1-181)
Technique: protein binding microarray
Form: double-stranded DNA, one strand shown
Sample: in vitro
Concentration: not given
Setting: 8-mer, flanks averaged, mean of 2 arrays, mostly near background
Relative to: not given
Direction: higher = stronger binding
Target sequence (chain): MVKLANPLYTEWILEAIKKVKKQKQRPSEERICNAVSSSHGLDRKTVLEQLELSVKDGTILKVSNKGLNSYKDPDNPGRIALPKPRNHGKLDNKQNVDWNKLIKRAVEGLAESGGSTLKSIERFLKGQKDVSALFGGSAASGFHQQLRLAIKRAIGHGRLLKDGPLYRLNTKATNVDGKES
Sequence | E-score
GAAGCGAC | 0.0525
ATGCAGTC | -0.0758
ACGCGTAA | 0.312

Sample 3
Target: Sal-like protein 4, full length isoform A (SALL4, Homo sapiens, UniProt Q9UJQ4, residues 1-1053)
UniProt Q9UJQ4, sequence (whole entry, looked up): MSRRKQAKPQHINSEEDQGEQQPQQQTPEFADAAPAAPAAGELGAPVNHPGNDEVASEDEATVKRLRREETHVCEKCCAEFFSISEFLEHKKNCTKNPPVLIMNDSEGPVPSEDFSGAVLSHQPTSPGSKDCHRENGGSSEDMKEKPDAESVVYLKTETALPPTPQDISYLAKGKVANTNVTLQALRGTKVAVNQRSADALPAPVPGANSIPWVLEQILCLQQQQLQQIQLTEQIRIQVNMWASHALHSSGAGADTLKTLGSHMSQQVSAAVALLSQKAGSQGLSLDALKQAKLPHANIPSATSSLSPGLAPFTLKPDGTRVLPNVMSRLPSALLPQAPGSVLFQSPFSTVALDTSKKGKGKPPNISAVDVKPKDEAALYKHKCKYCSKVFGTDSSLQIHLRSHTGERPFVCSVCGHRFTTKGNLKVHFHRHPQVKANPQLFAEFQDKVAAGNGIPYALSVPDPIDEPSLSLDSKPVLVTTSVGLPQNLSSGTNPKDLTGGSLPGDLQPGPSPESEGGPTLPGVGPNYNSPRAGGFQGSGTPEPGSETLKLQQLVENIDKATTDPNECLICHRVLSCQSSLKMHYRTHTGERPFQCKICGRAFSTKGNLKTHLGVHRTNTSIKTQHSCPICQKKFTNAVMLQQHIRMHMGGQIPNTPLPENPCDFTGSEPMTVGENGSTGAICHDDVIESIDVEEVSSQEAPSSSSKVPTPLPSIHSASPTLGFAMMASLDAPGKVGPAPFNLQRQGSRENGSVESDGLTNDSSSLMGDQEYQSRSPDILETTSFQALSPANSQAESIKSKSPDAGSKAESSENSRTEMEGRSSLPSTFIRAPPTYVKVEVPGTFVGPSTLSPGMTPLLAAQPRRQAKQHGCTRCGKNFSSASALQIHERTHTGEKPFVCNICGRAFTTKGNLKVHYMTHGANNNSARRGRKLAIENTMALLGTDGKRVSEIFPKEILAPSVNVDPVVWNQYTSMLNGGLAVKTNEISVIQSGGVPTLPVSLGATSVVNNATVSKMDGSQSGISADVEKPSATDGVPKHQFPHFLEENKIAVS
Technique: universal PBM
Form: double-stranded DNA, one strand shown
Sample: in vitro
Concentration: 600 nM
Setting: 8-mer, flanks averaged, mean of replicates
Direction: higher = stronger binding
Sequence | E-score
CCTGTGTC | -0.286
AGTAATGA | 0.254
AAGTCCGG | -0.199
GATGTGGC | -0.137
GCCAGAAA | -0.11

Further values, each from its own experiment
Substance | target | assay | system | setting | how to read | endpoint | result
PhoQ, residues 284 288 289 292 302 303 TSTLRA | PhoP, residues 12 14 15 18 19 SYFRT (Escherichia coli, UniProt P23836) | Sort-seq, measured: YFP reporter | E. coli | PhoQ-PhoP variant library, together with: 10 µM Mg2+ | relative to: high Mg2+ state, higher = stronger signaling | fold induction | 9.54

Some of these lines once more (sample 3):
Sequence | E-score
AAGTCCGG | -0.199
